Published values collected from several papers.
Parts stem from different laboratories: compare values within a part only.

Series 1
Target: Sal-like protein 4, full length isoform B (SALL4, Homo sapiens, UniProt Q9UJQ4-2, residues 1-616)
Technique: universal PBM
Form: double-stranded DNA, one strand shown
Medium: in vitro
Tested at: not given
Setting: 8-mer, flanks averaged, mean of replicates
Reading: higher = stronger binding
Endpoint: E-score
ACCGCCGA: -0.28
AACACTAC: 0.0707
ACCGTATA: 0.0623
TCGTGGAA: 0.123
CGCTAGGC: -0.289
GTGGGCAA: -0.097
AGGGTGTA: 0.0724

Series 2
Target: Phosphate system positive regulatory protein PHO4, full length, GST-tagged (PHO4, Saccharomyces cerevisiae, UniProt P07270, residues 1-312)
Technique: competition protein-binding microarray
Form: double-stranded DNA, one strand shown
Medium: in vitro
Tested at: 2 µM
Setting: whole 60-bp probe, lowest competitor level
Added: Cbf1 competitor, 0.05 µM
Reading: higher = stronger binding
Endpoint: fluorescence intensity
Residues (chain): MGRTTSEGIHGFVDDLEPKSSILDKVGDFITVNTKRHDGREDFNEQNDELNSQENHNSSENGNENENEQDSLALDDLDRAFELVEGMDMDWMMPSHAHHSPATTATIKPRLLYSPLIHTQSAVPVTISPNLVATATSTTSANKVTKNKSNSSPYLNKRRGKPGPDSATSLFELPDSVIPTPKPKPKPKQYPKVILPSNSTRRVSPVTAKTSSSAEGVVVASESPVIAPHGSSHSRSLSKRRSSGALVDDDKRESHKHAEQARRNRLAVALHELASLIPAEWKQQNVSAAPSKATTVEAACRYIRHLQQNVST
TCTAATCTCTAAGTACACGTGCAAATGGACCTATCAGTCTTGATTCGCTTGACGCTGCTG: 16800 a.u.
CTTTCCCGATCTTGCTGTGTGGGTGTAGCACATTTGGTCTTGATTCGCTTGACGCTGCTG: 5430 a.u.
CGGGGTTAAGTTTGTCACGCCACTTGCTTGCAGCAGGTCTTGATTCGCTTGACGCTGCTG: 5750 a.u.
CGTCCTAGTGATTGTCACAGTACTTCCATGAGGAAGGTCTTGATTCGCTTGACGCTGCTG: 4720 a.u.
CATAATAACAGTTGCGTTGTGACGCTATTGTTAACAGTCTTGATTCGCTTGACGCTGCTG: 4360 a.u.
ATTATTTCTATCGGCCACGTGTTGATTGGGCTTAATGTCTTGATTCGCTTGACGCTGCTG: 20300 a.u.

Series 3
Target: Max-binding protein MNT, bHLH-zipper, MAX partner unstated (MNT, Homo sapiens, UniProt Q99583, residues 220-300)
Technique: protein-binding microarray
Form: double-stranded DNA, one strand shown
Medium: in vitro
Tested at: not given
Setting: k-mer, scored over probes, only values ≥0.25
Reading: higher = stronger binding
Endpoint: E-score
Residues (chain): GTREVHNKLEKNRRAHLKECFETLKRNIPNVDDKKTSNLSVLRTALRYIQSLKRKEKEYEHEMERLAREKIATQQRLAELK
CTCGTGAC: 0.412
CCCCACCA: 0.312
CATGGTTC: 0.284
GCGTGACA: 0.384

Other studies, line by line
PhoQ, residues 284 288 289 292 302 303 WVSSAF  fold induction (PhoP, residues 12 14 15 18 19 IFFTR (Escherichia coli, UniProt P23836); Sort-seq, refers to: YFP reporter; E. coli; PhoQ-PhoP variant library, added: 10 µM Mg2+; baseline: high Mg2+ state, higher = stronger signaling): 1.94
